Measured values gathered from unrelated publications.
A part holds a random share of what one study measured.

Study 1
Target: RING finger protein unkempt homolog, zinc fingers 1-6, SBP tag (UNK, Homo sapiens, UniProt Q9C0B0, residues 30-357)
Sequence of UniProt Q9C0B0 (30-357, looked up): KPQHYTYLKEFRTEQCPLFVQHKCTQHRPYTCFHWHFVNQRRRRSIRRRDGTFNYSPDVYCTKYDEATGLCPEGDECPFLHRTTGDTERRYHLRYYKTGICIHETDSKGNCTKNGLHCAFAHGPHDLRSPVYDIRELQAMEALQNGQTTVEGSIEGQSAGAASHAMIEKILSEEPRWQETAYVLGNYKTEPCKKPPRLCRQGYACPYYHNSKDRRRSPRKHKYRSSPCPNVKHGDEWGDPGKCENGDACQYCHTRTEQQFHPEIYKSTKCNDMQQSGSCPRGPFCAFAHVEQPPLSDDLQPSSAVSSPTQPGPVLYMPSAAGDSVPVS
Method: RNA Bind-n-Seq
Form: RNA
Matrix: in vitro
Tested at: 100 nM
Setting: RNA with constant flanks, vertebrate orthologous sites, ends assumed
Relative to: input RNA pool
Direction: higher = stronger binding
Measurement: bound/input enrichment
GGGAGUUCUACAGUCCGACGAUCUUGUGAGGAGUGGGAAAGAUGAGAUUCUUCCCCCUCCAAGUAAAACUGACGUAACUUCCUUUUAGUAUUGUCUUAGAAAACAAAGAUGCCCUUUUCUCUUAAUUGUGACACCACUAUCCCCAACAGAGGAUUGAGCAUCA: 1.97 ratio
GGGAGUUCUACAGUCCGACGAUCCCUCCUGAACUUCUCUUGCUUUCAAGCUGUGGCUGUUUCAGAUACUGGUUUUAUUUUCUUUGCAGUUUUCCCCUGUCCCACCUUUCUCCCCUUCUUUCCAAGGUUUGACUCAUGGAUUGUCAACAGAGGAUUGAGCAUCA: 1.16 ratio
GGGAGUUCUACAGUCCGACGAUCGGUUGUACCUCCUGAACUUCUAGCUUUCAAGUUGUGGCUGUUUUUUUUUUUUCUUUUCUUUAGAAUUUUUCCCUGUUUCCCACCUUCUCUUCCCCUGUUCCCAAGGUCUAACUCAUGGAUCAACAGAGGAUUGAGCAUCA: 2.47 ratio
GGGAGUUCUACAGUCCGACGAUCGAAUAUGAUUUGUCUAAUUUAUUAUUUUUUCUCUUGCUGAAGUACUACGCUAUGCCAAAACAGUGAUUGUUAACCAUUAAUUGAUCUGUUAUGGGCGUGGCUAUAUAUUGAAAUGCGAUUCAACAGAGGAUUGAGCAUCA: 0.45 ratio
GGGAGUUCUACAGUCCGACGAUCUUACAGUCAUUGAUGGACUCUAUUUUUUUAUUAUUACUUGGACCUUGGUCGUUUUUAUACUAGCAAAAUGUCUUGUUUUAAUUUGUGUUUUUUUGGGGGGAGGGAGUGAACUUGCUGAUUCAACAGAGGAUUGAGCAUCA: 2.47 ratio
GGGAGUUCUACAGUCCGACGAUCAGCUUCUGGCGACAUUUGGCCUGGCCUUUCAGCAUAUGAUAACAGUCCAAGGUCACCCCAUAGUCCUUCUAUUGCCACCCCACCUAGUCAGAGUUCAUCUUGCUCUGAUGCCCCUUUGCUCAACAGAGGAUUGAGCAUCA: 0.727 ratio
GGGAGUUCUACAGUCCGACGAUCGGCAGCCGGUGGGGGUUGUCCCCUGCCCUGGCCUUGCCUCCCCUCCCUGCCACCUGCCCCUUAUUAUUUUUUUUUUAAACCACCAUGUGAUUAAGGUCAGCGCUGCCUCUCCUGACCCACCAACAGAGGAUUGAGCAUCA: 2.86 ratio
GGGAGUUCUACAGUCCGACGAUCUAGUGCCAUGGUGGAGGGCUCCGAGCUCAAAAAGGUCCGCUCCAACUCCAGGAUUUACCACAGGUAUUUCUUGCUGGACGCCGACAUGCAGAGCCUGAGGUGGGAACCAUCCAAGAAGGACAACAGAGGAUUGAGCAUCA: 0.251 ratio

Study 2
Target: Interferon regulatory factor 5, full length, phosphomimetic (IRF5, Homo sapiens, UniProt Q13568-2, residues 1-514, S451D/S453D/S456D/S462D)
Method: protein-binding microarray
Form: double-stranded DNA, one strand shown
Matrix: in vitro
Tested at: 940 nM top
Setting: 60-bp whole probe
Added: salmon DNA 0.4 mg/ml
Relative to: random background probes
Direction: higher = stronger binding
Measurement: fitted relative affinity
All sequences stand within: GCCTAGCAC … GTCTTGATTCGCTTGACGCTGCTG
TTAGGTATCCCTATCCTTTAGTGCTAG: 0.759 z-score
ATAGATTTCAGACTGGATTAGTGCTAG: -0.262 z-score
GTGTACATCTCTCTTAAATAGTGCTAG: 0.664 z-score
GAACATACTGATTTCCACTTGTGCTAG: 0.695 z-score
TCAAAAATCAAGTCTGGGACTGTGCTA: -0.488 z-score
TTAGATATCAGTCTCGCTTAGTGCTAG: 1.53 z-score
GACGGACTGCTTCTCCTGACGTGCTAG: -0.106 z-score
TTAGGTCTCGGTATCGGTTAGTGCTAG: 7.21 z-score
TTAGGTTTCGGTCTAGGTTAGTGCTAG: 15.5 z-score
TTAGGGCTGGACTATCGGTTAGTGCTA: -0.0229 z-score
ATATATGTATATATGTGTATGTGCTAG: -0.111 z-score
TTAGGTCCCCTTATCCTTTAGTGCTAG: 0.216 z-score
TTAGATATCACTATCGATTAGTGCTAG: 0.954 z-score
CTTGCTTTGTGCCTAGCCTTGTGCTAG: -0.54 z-score
TTAGGTTCCCTTTTCATTTAGTGCTAG: 1.09 z-score
GGTATTATTTATTGTAGCCTCGTGCTA: 0.514 z-score
TTAGGTCTCCTTCTCCCTTAGTGCTAG: 0.437 z-score
GATGGTTTCCTTTTCCTGACGTGCTAG: 2.63 z-score
TCAACTCCAGTTCTGGGACTGTGCTAG: -0.502 z-score

Study 3
Target: Fragile X messenger ribonucleoprotein 1, C-terminal low-complexity region (Fmr1, Mus musculus, UniProt P35922)
Method: RNA Bind-n-Seq
Form: RNA
Matrix: in vitro
Tested at: 200 nM
Setting: whole 134-nt RNA, ends assumed
Added: 150 mM KCl
Relative to: input library
Direction: higher = stronger binding
Measurement: log2 enrichment
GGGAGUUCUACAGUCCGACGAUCAAGUCCUGUGCUACACAUCGUAUGUACCGAAUCGGAAAAAGGUUUGGAAAAAAAGGAAAGUAUUAUGUUACGCCGUUCGGAUCUGCACUUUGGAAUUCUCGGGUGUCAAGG: -1.33
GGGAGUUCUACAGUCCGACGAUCCAAGUCCUGUGCUACACAUCGUAUGUACCGAAUCGGGAAAAAGGGAGGGAAAGGGAAAGUAUUAUGUUACGCCGUUCGGAUCUGCACUUCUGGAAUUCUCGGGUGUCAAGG: 0.641
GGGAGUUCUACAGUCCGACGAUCCCUGUGCUACACAUCGUAUGUACCGAAUCGGGAAAAAGGGUUUUUUUGGGAAAAAAAGGGAAAGUAUUAUGUUACGCCGUUCGGAUCUGCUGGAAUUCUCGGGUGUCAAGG: -0.992
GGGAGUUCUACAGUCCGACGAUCAAGUCCUGUGCUACACAUCGUAUGUACCGAAUCGGGGAAAGGGGUGGGGUUUGGGGAAAGUAUUAUGUUACGCCGUUCGGAUCUGCACUUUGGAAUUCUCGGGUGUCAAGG: 1.06
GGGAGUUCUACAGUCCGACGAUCAAAAAAAGUGUGUAUUAGGAGGAGAGAGAGGAAAAAAAGAGGAAAGAAGGAAAAAAAAAAGAAUUAAAAAAAAAAAAAAGAAAAACAGAAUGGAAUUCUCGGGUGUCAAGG: 0.0173
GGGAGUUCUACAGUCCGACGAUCCAAGUCCUGUGCUACACAUCGUAUGUACCGAAUCGGGGUUUGGGUUUGGGUUUGGAAAGUAUUAUGUUACGCCGUUCGGAUCUGCACUUCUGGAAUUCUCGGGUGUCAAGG: -0.0579

Study 4
Target: RNA binding protein fox-1 homolog 2, RRM domain, GST-SBP tag (RBFOX2, Homo sapiens, UniProt O43251-10, residues 100-194)
Method: RNA Bind-n-Seq
Form: RNA
Matrix: in vitro
Tested at: 365 nM
Setting: natural RNA segment, single round, ends assumed
Relative to: no-protein control
Direction: higher = stronger binding
Measurement: RBNS enrichment (R)
Construct (chain): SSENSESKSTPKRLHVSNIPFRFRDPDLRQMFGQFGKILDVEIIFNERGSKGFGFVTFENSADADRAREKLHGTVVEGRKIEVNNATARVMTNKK
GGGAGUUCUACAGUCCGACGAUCCUUGAGUCCUGUUGGACGUGAUAGUGUUUCUUGAUCUGUAUGCCACAGUGCCUUUAUGGCCAGUUUGAGUCCUACCUACUUCAGUUUUUAUGUUCCCACUCCUCCUGUGUUGGAAUUCUCGGGUGCCAA: 0.615
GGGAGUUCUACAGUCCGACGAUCUUCCCCUUGGGCUGUGUUGGAGUGAGCACCUCCUCUGUAGGCACCUCUCACACUGUUGUCUGUUACUGAUUUUUUUUGAUAAAAAGAUAAUAAAACCUGGUACUUUCUAAUGGAAUUCUCGGGUGCCAA: 0.294
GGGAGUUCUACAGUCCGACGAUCUUAACAUAAAUCAUGCAUGUCUGUUUACUUUAGUGACGUUCCACAGAAUAAAAGGAAACAAGUUUGCCAUCUUGGUGUUGCAAUAUGAAUUACAGCCUUAACAGACUGUGUGGAAUUCUCGGGUGCCAA: 4.02
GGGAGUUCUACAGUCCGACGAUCGACCAAAGGGAUGGUAUUGAGAAGAGAGAAAGAAGAUAGUGAGAUUUAAGUUCCUGCUGCCUGGGUAGGCCCCACAAGGCCUGGUCUGGGAGUAUACGGAAACAAAAAUGUGGAAUUCUCGGGUGCCAA: 0.644
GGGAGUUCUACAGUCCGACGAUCUGGGGCACCGCACUUUGUAAAGGGUGAUGGUGGACCCCUUCCCUUACUUUCAGGUCUGGAGUCUUCAGAUCUCUUCCUUGAGGCGGCCAGGGAGAGGAAGUCUCGCUCUCUGGAAUUCUCGGGUGCCAA: 0.269
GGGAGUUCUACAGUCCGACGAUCUAGAUUAAGGUUGAACCUUAGACACAAUGUGUGUUGUUAGUUGUAGAGCAGCCAUAUGUGCCAUGGGUGCUUUGUGUUAGUUAUCUGCUCUAGUCUUACAGCUGAAAAUUUGGAAUUCUCGGGUGCCAA: 0.431
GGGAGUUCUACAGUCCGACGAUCAUAAAGAUCCCCUACAGCAUUUCUUUAUUAGUUUCAUCAGAUUUGUUCUAUGCAUUAUUCUUCAAGAGAAAUUAGUUUUCAAAAUGCCCACCAAAAUACCUAGUAAUUAAUGGAAUUCUCGGGUGCCAA: 0.772
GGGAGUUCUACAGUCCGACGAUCUAAGGAAAAUAAUAUUAUUUAAACUCGCUCCUAGUGUUUCUUUGUGGUCUGUGUCACCGUAUCUCAGGAAGUCCAGCCACUUGACUGGCACACACCCCUCCGGACAUCCAUGGAAUUCUCGGGUGCCAA: 0.535

Excerpt of the above (study 1):
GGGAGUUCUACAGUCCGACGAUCGGUUGUACCUCCUGAACUUCUAGCUUUCAAGUUGUGGCUGUUUUUUUUUUUUCUUUUCUUUAGAAUUUUUCCCUGUUUCCCACCUUCUCUUCCCCUGUUCCCAAGGUCUAACUCAUGGAUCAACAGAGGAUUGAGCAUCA: 2.47 ratio
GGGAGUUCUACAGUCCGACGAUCGAAUAUGAUUUGUCUAAUUUAUUAUUUUUUCUCUUGCUGAAGUACUACGCUAUGCCAAAACAGUGAUUGUUAACCAUUAAUUGAUCUGUUAUGGGCGUGGCUAUAUAUUGAAAUGCGAUUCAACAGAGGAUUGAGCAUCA: 0.45 ratio
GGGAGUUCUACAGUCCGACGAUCUUACAGUCAUUGAUGGACUCUAUUUUUUUAUUAUUACUUGGACCUUGGUCGUUUUUAUACUAGCAAAAUGUCUUGUUUUAAUUUGUGUUUUUUUGGGGGGAGGGAGUGAACUUGCUGAUUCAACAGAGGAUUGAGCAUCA: 2.47 ratio
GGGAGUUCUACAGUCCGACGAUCAGCUUCUGGCGACAUUUGGCCUGGCCUUUCAGCAUAUGAUAACAGUCCAAGGUCACCCCAUAGUCCUUCUAUUGCCACCCCACCUAGUCAGAGUUCAUCUUGCUCUGAUGCCCCUUUGCUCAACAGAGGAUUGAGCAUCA: 0.727 ratio
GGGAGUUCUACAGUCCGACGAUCGGCAGCCGGUGGGGGUUGUCCCCUGCCCUGGCCUUGCCUCCCCUCCCUGCCACCUGCCCCUUAUUAUUUUUUUUUUAAACCACCAUGUGAUUAAGGUCAGCGCUGCCUCUCCUGACCCACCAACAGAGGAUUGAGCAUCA: 2.86 ratio
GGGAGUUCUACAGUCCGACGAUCUAGUGCCAUGGUGGAGGGCUCCGAGCUCAAAAAGGUCCGCUCCAACUCCAGGAUUUACCACAGGUAUUUCUUGCUGGACGCCGACAUGCAGAGCCUGAGGUGGGAACCAUCCAAGAAGGACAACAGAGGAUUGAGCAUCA: 0.251 ratio
